# Experimental data pooled from the literature.
# “And” joins repeats or separate records; there may be more than shown. ± marks the error that the study gave.
# CREBBP bromodomain: CREB-binding protein, bromodomain (CREBBP, Homo sapiens, UniProt Q92793)
# PADI4: Protein-arginine deiminase type-4 (PADI4, Homo sapiens, UniProt Q9UM07)
# UniProt Q9UM07, sequence (whole entry, looked up): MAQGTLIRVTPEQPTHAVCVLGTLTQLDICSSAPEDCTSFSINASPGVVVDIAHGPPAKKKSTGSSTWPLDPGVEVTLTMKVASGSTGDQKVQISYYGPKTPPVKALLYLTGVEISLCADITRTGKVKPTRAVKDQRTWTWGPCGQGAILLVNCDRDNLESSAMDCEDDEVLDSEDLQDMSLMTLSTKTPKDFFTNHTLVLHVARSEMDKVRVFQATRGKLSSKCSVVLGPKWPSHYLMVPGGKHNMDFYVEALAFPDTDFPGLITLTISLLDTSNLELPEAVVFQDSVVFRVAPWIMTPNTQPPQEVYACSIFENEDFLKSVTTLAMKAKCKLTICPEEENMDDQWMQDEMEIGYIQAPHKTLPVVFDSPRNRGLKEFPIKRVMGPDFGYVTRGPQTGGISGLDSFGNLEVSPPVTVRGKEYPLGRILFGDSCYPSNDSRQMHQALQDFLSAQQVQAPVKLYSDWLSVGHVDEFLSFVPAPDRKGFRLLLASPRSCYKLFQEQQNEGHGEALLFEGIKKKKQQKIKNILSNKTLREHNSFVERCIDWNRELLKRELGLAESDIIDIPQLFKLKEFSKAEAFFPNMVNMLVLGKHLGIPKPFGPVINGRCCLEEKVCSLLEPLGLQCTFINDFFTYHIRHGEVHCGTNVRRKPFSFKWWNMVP
# SLC6A3: Sodium-dependent dopamine transporter (SLC6A3, Homo sapiens, UniProt Q01959)
# UniProt Q01959, sequence (whole entry, looked up): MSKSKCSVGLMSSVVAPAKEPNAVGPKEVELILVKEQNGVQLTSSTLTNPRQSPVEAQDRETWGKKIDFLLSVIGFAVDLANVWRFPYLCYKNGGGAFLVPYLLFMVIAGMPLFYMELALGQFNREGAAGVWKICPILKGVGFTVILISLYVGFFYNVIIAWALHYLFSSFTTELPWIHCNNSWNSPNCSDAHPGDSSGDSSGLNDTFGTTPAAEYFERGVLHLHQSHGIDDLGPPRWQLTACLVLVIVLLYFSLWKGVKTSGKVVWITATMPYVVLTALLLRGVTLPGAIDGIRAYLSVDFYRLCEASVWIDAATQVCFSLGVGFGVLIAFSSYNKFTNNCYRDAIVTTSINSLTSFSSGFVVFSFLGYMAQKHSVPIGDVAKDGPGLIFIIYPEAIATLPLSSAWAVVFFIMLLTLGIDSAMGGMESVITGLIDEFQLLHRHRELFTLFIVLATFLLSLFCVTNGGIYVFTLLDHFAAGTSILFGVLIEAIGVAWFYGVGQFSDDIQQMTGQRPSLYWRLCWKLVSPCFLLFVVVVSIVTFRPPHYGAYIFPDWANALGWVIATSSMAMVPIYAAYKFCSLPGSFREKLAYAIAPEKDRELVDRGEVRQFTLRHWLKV
# MAOB: Amine oxidase [flavin-containing] B (MAOB, Homo sapiens, UniProt P27338)
# UniProt Q13936, sequence (whole entry, looked up): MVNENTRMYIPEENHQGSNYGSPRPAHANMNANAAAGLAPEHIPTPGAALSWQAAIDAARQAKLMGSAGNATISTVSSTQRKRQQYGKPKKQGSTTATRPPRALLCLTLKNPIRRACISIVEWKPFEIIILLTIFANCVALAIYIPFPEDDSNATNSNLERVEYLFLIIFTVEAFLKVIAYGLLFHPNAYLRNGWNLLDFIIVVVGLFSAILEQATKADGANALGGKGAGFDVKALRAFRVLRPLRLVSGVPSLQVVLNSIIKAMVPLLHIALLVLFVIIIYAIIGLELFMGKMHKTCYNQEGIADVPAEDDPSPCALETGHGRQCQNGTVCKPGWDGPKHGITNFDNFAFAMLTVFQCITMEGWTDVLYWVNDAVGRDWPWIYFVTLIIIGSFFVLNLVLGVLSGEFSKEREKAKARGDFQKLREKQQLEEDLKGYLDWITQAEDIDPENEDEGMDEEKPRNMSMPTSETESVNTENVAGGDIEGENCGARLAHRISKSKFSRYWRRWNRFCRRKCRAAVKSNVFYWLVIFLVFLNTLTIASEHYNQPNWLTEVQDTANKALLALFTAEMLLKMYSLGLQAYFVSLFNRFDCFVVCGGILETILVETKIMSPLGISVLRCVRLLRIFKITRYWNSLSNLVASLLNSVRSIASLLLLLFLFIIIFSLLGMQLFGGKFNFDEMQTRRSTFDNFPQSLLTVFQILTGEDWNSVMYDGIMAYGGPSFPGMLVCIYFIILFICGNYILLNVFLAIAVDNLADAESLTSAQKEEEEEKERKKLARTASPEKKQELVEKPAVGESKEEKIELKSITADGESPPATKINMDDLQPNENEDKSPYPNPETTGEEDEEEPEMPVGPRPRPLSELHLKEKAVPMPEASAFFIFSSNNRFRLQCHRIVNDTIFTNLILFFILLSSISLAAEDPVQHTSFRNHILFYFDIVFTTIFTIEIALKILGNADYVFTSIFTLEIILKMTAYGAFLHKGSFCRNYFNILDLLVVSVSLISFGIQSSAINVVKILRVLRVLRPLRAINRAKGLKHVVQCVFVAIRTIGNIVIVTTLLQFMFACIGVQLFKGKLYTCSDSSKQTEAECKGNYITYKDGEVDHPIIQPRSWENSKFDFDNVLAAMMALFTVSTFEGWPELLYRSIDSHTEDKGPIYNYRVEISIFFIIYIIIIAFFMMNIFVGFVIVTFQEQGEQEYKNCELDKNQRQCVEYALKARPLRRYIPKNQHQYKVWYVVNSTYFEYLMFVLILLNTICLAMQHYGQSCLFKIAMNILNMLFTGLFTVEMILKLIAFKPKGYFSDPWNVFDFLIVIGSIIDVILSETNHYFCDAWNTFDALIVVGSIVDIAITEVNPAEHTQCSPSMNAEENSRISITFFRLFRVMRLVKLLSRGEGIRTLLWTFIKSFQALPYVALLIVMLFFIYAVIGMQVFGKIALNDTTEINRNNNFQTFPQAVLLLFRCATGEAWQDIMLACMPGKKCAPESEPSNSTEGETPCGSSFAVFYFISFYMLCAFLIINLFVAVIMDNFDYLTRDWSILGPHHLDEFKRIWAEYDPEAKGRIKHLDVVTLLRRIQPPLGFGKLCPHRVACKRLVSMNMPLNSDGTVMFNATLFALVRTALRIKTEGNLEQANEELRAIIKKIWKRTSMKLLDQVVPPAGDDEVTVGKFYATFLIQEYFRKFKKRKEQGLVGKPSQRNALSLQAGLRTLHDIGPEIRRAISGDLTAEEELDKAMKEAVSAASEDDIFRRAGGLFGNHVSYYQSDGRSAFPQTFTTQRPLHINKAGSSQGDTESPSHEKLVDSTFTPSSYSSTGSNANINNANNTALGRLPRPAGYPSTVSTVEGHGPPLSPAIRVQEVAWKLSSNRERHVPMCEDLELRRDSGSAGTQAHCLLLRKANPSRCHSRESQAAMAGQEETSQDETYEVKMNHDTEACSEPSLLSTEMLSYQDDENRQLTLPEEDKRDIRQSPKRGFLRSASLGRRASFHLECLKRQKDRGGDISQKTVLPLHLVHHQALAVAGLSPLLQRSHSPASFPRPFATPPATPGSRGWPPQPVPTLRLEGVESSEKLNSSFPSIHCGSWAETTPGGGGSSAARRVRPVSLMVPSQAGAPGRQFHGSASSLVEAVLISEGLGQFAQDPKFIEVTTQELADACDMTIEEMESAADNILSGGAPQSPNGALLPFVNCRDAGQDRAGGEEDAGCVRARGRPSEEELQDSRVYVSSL
# UniProt P51575, sequence (whole entry, unmodified, looked up): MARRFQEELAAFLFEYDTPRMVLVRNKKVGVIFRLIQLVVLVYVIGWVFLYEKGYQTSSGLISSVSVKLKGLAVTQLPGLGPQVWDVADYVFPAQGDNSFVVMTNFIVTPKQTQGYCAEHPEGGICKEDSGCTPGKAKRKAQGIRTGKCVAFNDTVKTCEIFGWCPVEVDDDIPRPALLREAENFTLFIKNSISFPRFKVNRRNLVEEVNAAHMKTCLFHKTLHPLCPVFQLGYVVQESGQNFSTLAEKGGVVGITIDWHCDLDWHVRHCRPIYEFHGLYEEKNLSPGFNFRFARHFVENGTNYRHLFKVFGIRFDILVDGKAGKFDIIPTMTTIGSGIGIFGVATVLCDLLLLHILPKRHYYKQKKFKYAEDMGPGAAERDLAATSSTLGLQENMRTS
# UniProt P48729, sequence (whole entry, looked up): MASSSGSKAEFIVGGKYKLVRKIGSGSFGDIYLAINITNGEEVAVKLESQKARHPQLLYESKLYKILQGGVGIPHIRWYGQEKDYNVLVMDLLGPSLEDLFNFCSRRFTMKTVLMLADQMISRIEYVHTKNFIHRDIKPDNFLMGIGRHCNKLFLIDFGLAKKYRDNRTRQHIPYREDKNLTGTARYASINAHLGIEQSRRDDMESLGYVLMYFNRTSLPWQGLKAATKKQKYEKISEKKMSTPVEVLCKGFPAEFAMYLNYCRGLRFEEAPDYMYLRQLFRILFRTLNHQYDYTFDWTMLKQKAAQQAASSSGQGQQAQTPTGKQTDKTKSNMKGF
Structure (SMILES),target or system,assay,test system,setting,scale,endpoint,result
NC/C(=C\F)COc1cccc(Cn2c(=S)[nH]c(=O)c3[nH]cnc32)c1,"Voltage-dependent L-type calcium channel subunit alpha-1C (CACNA1C, Homo sapiens, UniProt Q13936)","peak ion current, inhibitor, automated patch clamp",,"10 µM, pulse 10, single recording",,inhibition,-1.1% and -0.5% and -1.9%
Cn1nnc2ccc(NC(=O)c3cccc(C(=O)O)c3)cc21,CREBBP bromodomain,"binding, BROMOscan competition binding",,,baseline: Kd BRD4 bromodomain 1 over Kd CBP bromodomain,selectivity ratio,0.4
Cn1cc(-c2ccc(-c3cncc(Cl)c3N3CCC4(CCNC4=O)CC3)cc2)cn1,COLO 205,"gene expression, microarray, refers to: TRAF1 mRNA",,"concentration not given, 2 h",baseline: untreated cells,log2 fold change,2.8
Cc1ccc(COc2ccc3ccc(C(=O)N[C@@H](CCCNC(=N)CCl)C(=O)NCc4ccccc4)cc3c2)cc1,PADI4,,,,baseline: PAD4 IC50 over PAD1 IC50,selectivity ratio,0.698
Nc1ncnc2c1ncn2[C@@H]1O[C@H](COP(=O)(O)CP(=O)(O)OP(=O)(O)O)[C@@H](O)[C@H]1O,"P2X purinoceptor 1 (P2RX1, Homo sapiens, UniProt P51575, D170A)",calcium influx,,10 µM,baseline: ionomycin response,calcium influx,100% and 76.8% and 67% and 74.2%
O=C(Nc1ccc(F)cn1)c1cc(Oc2cncnc2)cn2ncnc12,SLC6A3,"dopamine uptake, inhibitor",CHO-K1,added: [3H]dopamine,baseline: DAT IC50 over mGlu5 IC50,selectivity ratio,> 135
CC(C)C[C@H](NC(=O)C[C@H](O)[C@H](CC(C)C)NC(=O)[C@H](Cc1c[nH]cn1)NC(=O)CNC(=O)[C@@H](NC(=O)[C@H](C)NC(=O)[C@H](Cc1c[nH]c2ccccc12)NC(=O)[C@H](CCC(N)=O)NC(=O)[C@@H](Cc1ccccc1)NC(=O)COCCOCCNC(=O)CCC(C(=O)O)N1CCN(CC(=O)O)CCN(CC(=O)O)CCN(CC(=O)O)CC1)C(C)C)C(N)=O (stereo partly drawn) [lutetium-177 labelled],,,"BALB/c nu/nu mice, blood","intravenous, 100 pmol, 1 h, added: PA 300 µg",,tissue uptake,0.38 ± 0.07 %ID/g
O=C(Nc1ccc(Cl)c(Cl)c1)c1ccc2c(c1)C(=O)NC2=O,MAOB,,,,baseline: IC50 MAO-A over IC50 MAO-B,selectivity ratio,> 2860
Cn1cc(C(=O)Nc2cccc(C(=O)O)c2)ccc1=O,CREBBP bromodomain,"binding, BROMOscan competition binding",,,baseline: Kd BRD4 bromodomain 1 over Kd CBP bromodomain,selectivity ratio,8
c1ccc(-c2n[nH]cc2-c2ccncc2)nc1,"Casein kinase I isoform alpha (CSNK1A1, Homo sapiens, UniProt P48729)","enzyme activity, ADP-Glo",,,baseline: IC50 over Yck2 IC50,selectivity ratio,6
CN1CCC(c2cc(-c3ccncc3)c(-c3ccc(F)cc3)[nH]2)CC1,Plasmodium falciparum,LDH colourimetric,3D7 Hyp1-Nluc,"20 µM, 72 h",baseline: DMSO,parasite growth,14.8%
O=C(Nc1ccc(F)c(Cl)c1)c1ccc2c(c1)C(=O)NC2=O,MAOB,,,,baseline: IC50 MAO-A over IC50 MAO-B,selectivity ratio,> 2670
N=C(CCl)NCCC[C@H](NC(=O)c1cnc2cc(O)ccc2c1)C(=O)NCc1ccccc1,PADI4,,,,baseline: PAD4 IC50 over PAD1 IC50,selectivity ratio,1.2
O=C(Nc1cccc(Br)c1)c1ccc2c(c1)C(=O)NC2=O,MAOB,,,,baseline: IC50 MAO-A over IC50 MAO-B,selectivity ratio,> 222
CNc1nc(C#Cc2ccc(Cl)s2)nc2c1ncn2[C@H]1[C@H](O)[C@H](O)[C@]2(CC#N)C[C@H]12,SLC6A3,,,,baseline: NET EC50 over DAT EC50,selectivity ratio,23 fold
N=C(CCl)NCCC[C@H](NC(=O)c1ccc2cc(-c3cc(F)c(F)c(F)c3)ccc2c1)C(=O)NCc1ccccc1,PADI4,,,,baseline: PAD4 IC50 over PAD1 IC50,selectivity ratio,0.687
O=C(Nc1ccc(F)c(Br)c1)c1ccc2c(c1)C(=O)NC2=O,MAOB,,,,baseline: IC50 MAO-A over IC50 MAO-B,selectivity ratio,> 3640
Cc1c(-c2ccc(N3CCc4cccc(C(=O)Nc5nc6ccccc6s5)c4C3)nc2C(=O)O)cnn1CC12CC3(C)CC(C)(C1)CC(OCCNCC[C@H](O)CO)(C3)C2,,,"beagle dog, male, anaesthetised","intravenous infusion, 0.3 mg/kg/min, 60 min",baseline: vehicle,dP/dt at 50 change,-26%

# A few entries again:
Structure (SMILES),target or system,assay,test system,setting,scale,endpoint,result
Cn1cc(-c2ccc(-c3cncc(Cl)c3N3CCC4(CCNC4=O)CC3)cc2)cn1,COLO 205,"gene expression, microarray, refers to: TRAF1 mRNA",,"concentration not given, 2 h",baseline: untreated cells,log2 fold change,2.8
Cc1ccc(COc2ccc3ccc(C(=O)N[C@@H](CCCNC(=N)CCl)C(=O)NCc4ccccc4)cc3c2)cc1,PADI4,,,,baseline: PAD4 IC50 over PAD1 IC50,selectivity ratio,0.698
